Results pooled from the literature.
Numbered parts are unrelated; each lists some results of a single study.

Block 1 — method: universal PBM; form: double-stranded DNA, one strand shown; medium: in vitro; tested at: 600 nM; reading: higher = stronger binding
Target: Sal-like protein 4, full length isoform A (SALL4, Homo sapiens, UniProt Q9UJQ4, residues 1-1053)
UniProt Q9UJQ4, sequence (whole entry, looked up): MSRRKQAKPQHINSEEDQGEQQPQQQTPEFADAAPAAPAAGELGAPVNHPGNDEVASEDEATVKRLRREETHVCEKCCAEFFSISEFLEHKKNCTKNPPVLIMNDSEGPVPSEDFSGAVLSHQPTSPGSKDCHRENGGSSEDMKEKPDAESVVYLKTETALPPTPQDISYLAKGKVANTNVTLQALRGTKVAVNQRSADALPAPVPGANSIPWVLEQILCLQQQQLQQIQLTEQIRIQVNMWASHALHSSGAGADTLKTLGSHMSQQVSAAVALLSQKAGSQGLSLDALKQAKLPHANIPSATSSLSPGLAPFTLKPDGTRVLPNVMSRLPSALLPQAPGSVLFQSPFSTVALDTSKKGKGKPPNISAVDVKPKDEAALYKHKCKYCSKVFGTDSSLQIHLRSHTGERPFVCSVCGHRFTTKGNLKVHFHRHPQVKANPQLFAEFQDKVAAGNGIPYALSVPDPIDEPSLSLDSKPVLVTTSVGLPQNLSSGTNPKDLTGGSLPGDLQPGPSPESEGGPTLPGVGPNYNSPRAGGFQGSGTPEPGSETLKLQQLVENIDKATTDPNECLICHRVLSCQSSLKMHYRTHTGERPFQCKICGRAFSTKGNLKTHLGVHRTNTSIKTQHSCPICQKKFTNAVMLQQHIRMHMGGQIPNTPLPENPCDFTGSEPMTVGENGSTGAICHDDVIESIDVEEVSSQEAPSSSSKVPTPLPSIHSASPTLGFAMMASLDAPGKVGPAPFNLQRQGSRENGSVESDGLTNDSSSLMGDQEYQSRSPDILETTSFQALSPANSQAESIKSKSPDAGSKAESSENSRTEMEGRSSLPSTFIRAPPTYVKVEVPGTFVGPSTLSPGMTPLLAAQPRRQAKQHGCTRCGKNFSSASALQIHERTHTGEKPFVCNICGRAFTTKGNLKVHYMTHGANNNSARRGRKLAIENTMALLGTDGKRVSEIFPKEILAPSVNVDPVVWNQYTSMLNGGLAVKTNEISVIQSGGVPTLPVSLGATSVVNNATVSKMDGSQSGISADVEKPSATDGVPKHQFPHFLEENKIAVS
Notes: 8-mer, flanks averaged, mean of replicates
Strand	E-score
TACCTACA	0.178
ACATTGAG	0.0335
CGGGACCA	-0.372
GCGCGACA	-0.15
GGTTGGCA	-0.127
AATAGTGA	0.241
GTCATCAA	0.0579
AGTATTAG	0.241
GAGAAGAC	-0.07
GGTCGTTA	-0.0937
CACCAGGA	-0.158
GTCGTTCA	0.0324
CCCCAGAG	-0.37
AGATGCCA	-0.1
AGTGAGAC	-0.132
GGAATGTA	0.0205
CTCGACAA	0.082
ACCTGCTC	-0.0839
GGGATAGA	-0.0359
GAATTTAA	0.125
GACGTACA	0.00893
CACCCGTC	-0.295

Block 2 — method: RNA Bind-n-Seq; form: RNA; medium: in vitro; tested at: 365 nM; baseline: no-protein control; reading: higher = stronger binding
Target: RNA binding protein fox-1 homolog 2, RRM domain, GST-SBP tag (RBFOX2, Homo sapiens, UniProt O43251-10, residues 100-194)
Notes: natural RNA segment, single round, ends assumed
Shared flanks, not repeated: GGGAGUUCUACAGUCCGACGAUC … UGGAAUUCUCGGGUGCCAA
Construct (chain): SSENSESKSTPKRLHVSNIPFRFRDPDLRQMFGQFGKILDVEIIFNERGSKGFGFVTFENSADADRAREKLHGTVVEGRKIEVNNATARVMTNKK
Strand	RBNS enrichment (R)
UGGAACGAGUCUGAUUCAUGGUGUUAAUAGAGGCUUCUUGUUUUAGGAAGCUUUGCUUACACUCUGGAGCCUUUACACUCUGAAGGAGAACUUCAGGGUUAUUCCAAGUA	0.365
UGAGCAGUGACCAUGCAGCCACACCCAAUCACACAAGAGUCAGCAGAAGCCAGAGUCACCGAAGGAUUCUCCUUUUCCGACGCGCUUGGAGUGAACUACACAUAGACCAC	0.365
AAGCUGGAGGAGGAAGGGGAGUUUUGACUAAAGUUCCUUUUGUUUGUUUUAAAUUUUCAUCAAUGUAUAUAGAACAAAAUACCAUAUUAAAGAGGGGAAUGUGGAGGACU	0.776
UAUUUAGAAAUGUCUUACUGUAUAUAUGUUUAUGUUUAUUUGGUCCUUAGAGAUUAAAAGCGGUCAUACAAGUAUGUUCCUAUUUCAUUUCUAUUUUUCACACCAUCACA	0.255
AUAGUUCUAGCACUUUUAAAUUUUUCCUUUCCAUACAACGCUUGGGCCAGCCUCUCUGUGCUGCGUGGCUGUCGGUCCCCCUCAGCUGGGAAAGAGAGCACUGGCUCACU	0.625
UUGUUAUAAUUCUCAACCAGAAAUUUAAUACUUUCUAAAAUAUUUUUUAAAUUUAGCUUGUGCUUUUGAAUUACAGGAGAAGGGAAUCAUAAUUUAAUAAAACGCUUACU	0.927
AACGCCUUCACUGGAUCAGCCGCUGGAACUGAGGGAGUGAGCUUGGGGACUUCCUUCGUCAGCACUGGCUUUCUGUUUUCACAAGACAGACGUCUGUCCCGCUGCUCUCU	0.393
GGCCCGUCCUCGGGGGGCUGCGCACAUCACGCUCCUUGCCGGGCGUCCGGCACAGCUGCGGUCACCAAAGCAGGUGCUGGCCCUCGGACCUGAGAGCCCAGCCAGGGCCC	0.231
UGUGUCUGGACUUAACUCACGUAGUAAAUACUGCUGAUCAAUACCUAAUCAUUCCACAUUUAUUGAGCUCCACCUGUGUGUAUGUGUACCCAAGCACACAUGUGUGAAGG	0.45
CCUAAUCCAGGAGUGCCCCCUCACUUGUCACCGAGUCUCCUCUAUUGCCUGCCUCUGCUGUGAAUUAACUUGUUCUGUGUAUUAAACUGGGCCUGACCCCUCUGCCCACG	1.03
GCUUCUGCCGGGUUUUUGUACAUGUAAACACUGUCAAGCUGUGAAAGAAAGUGGCUGGAGGUGUGUUUGGUGUGAGAGGUGAGCAAUAAAGUACCUGCACAUUCUCUCCU	0.623
UUCAGUUGGGAUAGGCUUGUUUUGUCUGUUGAAAAUGUUUCUAGUUUUUUUUCUUUCAUUUUUCUCUCAUUCCAUUUCUGCCUUAACUUUAGUUUGUUCACAGGGAGGCA	0.919

Block 3 — method: RNA Bind-n-Seq; form: RNA; medium: in vitro; tested at: not given; notes: RNA with constant flanks, ends assumed; baseline: input RNA pool; reading: higher = stronger binding
Target: RING finger protein unkempt homolog, zinc fingers 1-6, GST-SBP tag (UNK, Homo sapiens, UniProt Q9C0B0, residues 30-357)
Shared flanks, not repeated: GGGAGUUCUACAGUCCGACGAUC … CAACAGAGGAUUGAGCAUCA
Construct (chain): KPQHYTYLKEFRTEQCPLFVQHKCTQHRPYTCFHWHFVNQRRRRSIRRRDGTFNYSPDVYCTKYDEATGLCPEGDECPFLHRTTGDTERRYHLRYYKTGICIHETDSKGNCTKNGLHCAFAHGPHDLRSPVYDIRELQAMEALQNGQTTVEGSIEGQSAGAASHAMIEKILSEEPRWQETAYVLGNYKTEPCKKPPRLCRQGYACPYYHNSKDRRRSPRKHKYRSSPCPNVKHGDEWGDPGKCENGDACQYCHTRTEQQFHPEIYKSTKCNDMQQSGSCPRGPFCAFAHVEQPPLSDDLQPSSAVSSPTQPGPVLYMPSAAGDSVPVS
Strand	bound/input enrichment
AGUCUUGUGAAUGAGACCACUUUGAUUAAAUACUCCAGGCUGCCAACCAUAAACAAGCACCGUUUCCGGUACUUUGUCUUGGAUAACAGUGUCAUCCUGGCAAUGCUGGAACAACCUCUU	0.0987 ratio
GUAGGCUCUGUCCGUUCCCAUACCUCCAGCAGGGCCAGUGAGAAUCAGUCUCCCAGCAGCCGCAACUACUUCAGCCCCCGGGAGUCGACUGAUUUCUCCUCUACCUCCCAGGAUGCAUUU	0.081 ratio
ACAGUUUAGAUAUUCUUUUUAUUUUUUUUCUUUUCCCUCAAUCCUUUUUUAUUUUUAAAAACCGUUCUUUUGUAAUGUGGUGUUCAAAACGGAAUUGAAAACUGGCACCCCAUCUCUUUG	124 ratio
AAGGAAAUGCUGGCUGCAAACCCUCAGGAUCGUCCAGAUGCUUUUGAACUAGAACUCAGAUCCGUACAAAUUGCAUUUAAAGAUAGCAGCUGGGAAACGUGACACAUAUUAUUUGCAAAU	0.275 ratio
GCCAGCAAGCCGCAGACCAUUCAAGAAUCAACAGGUGGUAUAGUCGAAGUUUUACAUAAGGCCGAUUCAGAAGGAAUCUCACCAAACCGUACCAGUCACGCGGCACCUGCAGCCACGUCA	0.165 ratio
UCUAAGGAAGCACAGAUAAGAGAAACUGAAACGUUUUCAGAUUCAUCUCCAAUUGAAAUUACCGAUGAGUUCCCUACAUUGAUCAGUUCUAAAACUGAUUCAUUUUCUAAAUUAGCCAGG	0.556 ratio
GCAUUGGCCCAAGCUGAACUUCUUAAGCGCCAGGAAGAACUAGAAAGAAAAGCCGCAGAAUCCGAUCGUCGGGAACGAGAAAUGCAAAACCUCAGUCAACAUGGUAGAAAAAAUAAUUGG	0.856 ratio
ACCCAUGCUUUUAUGGACACUAGGUAAACACCUUCAGCUUAAAUUUUUCGUUAAAUAUUUCCGUUUAUUUUAUUGUUAUCUUCCAGGUGUCUAAAUCUCCAGUCUGUCUGUUGUACUGGU	0.866 ratio
GGAACGUCAUUUGUCAUGGAUGUUCUACGCCCACAGAUUGUAACGUUCGAUGGACGGAAUUACCGAAAGAAUCCCAUCCAGGAGAAACAGUACCAACAUGAAGAAGACGAGGAUUUCUAU	0.159 ratio
GAAGAUGAAGCCAAUAUAGCCUGGAAGUAUUACAAGUUCCCAAAGAAAAAAGAUGCCGAGUUUUUACCACCUCAACUUCCAAGUGAUAAAUUCAAGGAUGAUCCAGUUGGACCUUUUGGA	0.602 ratio
CCAGAUAACCCGGGUUCUAUUCACAGGGCCCAGUUCCAAGGGCACUGCACACAGUGAUGCACCGAUGUAUGCAGGCAAAACACCCAUUCACAUAAAAUAAAAUGAUCUUUAAAAAAUACU	0.301 ratio

Block 4 — method: protein-binding microarray; form: double-stranded DNA, one strand shown; medium: in vitro; tested at: 940 nM top; notes: 60-bp whole probe; together with: salmon DNA 0.4 mg/ml; baseline: random background probes; reading: higher = stronger binding; shared flanks, not repeated: GCCTAGCAC … GTCTTGATTCGCTTGACGCTGCTG
Target: Interferon regulatory factor 5, full length, phosphomimetic (IRF5, Homo sapiens, UniProt Q13568-2, residues 1-514, S451D/S453D/S456D/S462D)
Strand	fitted relative affinity [z-score]
GATGGTTTCGGTCTCGGGACGTGCTAG	14.6
TTAGGACCGGGGACTGGGTTAGTGCTA	-0.427
TTAGATTTCGGGTTTCAATTAGTGCTA	2.39
GACGGAGTGGGGTTTCGGGACGTGCTA	1.96
GGGCATTTTTTTATCAATCAGTGCTAG	0.672
TTAGGACTGGGGACTGGCTTAGTGCTA	-0.0907
GACGGACTGCGGTTTCGGGACGTGCTA	1.92
GACGATATCAGAATCGAGACGTGCTAG	-0.361
TTAGGTCTCCTACTGCTTCAGTGCTAG	-0.0737
TTAGGTATGCTACTGCTTTAGTGCTAG	-0.575
GACGATTTCAGACTGGAGGCGTGCTAG	-0.546
GACGGTATCGGTATGGGGACGTGCTAG	8
GACGATTCCAGTTTCGGGACGTGCTAG	4.64
TTACGTTTCGGGACTGGGTTAGTGCTA	4.31
GACGGTTCCCTTTTCCAGACGTGCTAG	0.842
TTAGGACAGCTACTGCTTTAGTGCTAG	-0.497
TTAGGACTGGGGAATGGGTTAGTGCTA	-0.415
TCAACTTTAAATTAGACACTGTGCTAG	-0.00246
TTAGGTCTCGGACTGGTTTAGTGCTAG	1.11
GACGATTTCAGTTCCGATACGTGCTAG	1.76
GACGATTTCAGACTAGAGACGTGCTAG	-0.213
TTAGATATCGGGTTTCGAGTAGTGCTA	2.43
GACGGACAGGGGACTGGGGACGTGCTA	0.0561
TCAAATTTACTTTCTACACTGTGCTAG	1.04
TTAGGACTGCTTTTCCTATAGTGCTAG	-0.00132

Block 5 — method: protein binding microarray; form: double-stranded DNA, one strand shown; medium: in vitro; tested at: not given; baseline: not given; reading: higher = stronger binding
Target: Histone acetyltransferase KAT6A, both winged helices, GST fusion (KAT6A, Homo sapiens, UniProt Q92794, residues 1-181)
Notes: 8-mer, flanks averaged, mean of 2 arrays, mostly near background
Construct (chain): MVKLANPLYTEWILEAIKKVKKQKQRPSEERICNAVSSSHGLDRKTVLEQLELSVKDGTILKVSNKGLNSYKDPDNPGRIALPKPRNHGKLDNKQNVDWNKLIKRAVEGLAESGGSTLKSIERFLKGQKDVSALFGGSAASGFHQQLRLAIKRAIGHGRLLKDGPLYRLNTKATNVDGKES
Strand	E-score
GGGCAGCA	-0.112
ATACTTGA	-0.322
TATCACGA	-0.235
GCCGAGTA	0.199
GCTATCCA	-0.0406
CGGCTTCC	0.215
CTGGTAAG	-0.0781
CCAGTGCA	-0.171
AGCAGTAA	-0.249
ATATGTCC	0.0431
CGCGTGCA	0.225
CGTAATTA	0.0407
AACATTTG	-0.122
ATGTAAAC	0.0832
AGAACGCC	-0.0121
AATCTAGC	-0.112
CAGCACCA	-0.227

Repeated from above (block 5):
Strand	E-score
AGAACGCC	-0.0121
ATGTAAAC	0.0832
GCTATCCA	-0.0406
ATATGTCC	0.0431
GCCGAGTA	0.199
GGGCAGCA	-0.112
CGCGTGCA	0.225
CGGCTTCC	0.215
